Results from different studies.
Protocols differ between the studies behind these lines. ± gives the spread as reported. The star is where a group is joined. * marks the point of attachment.
B1: UGT1A9 (Homo sapiens, UniProt O60656); chain GKLLVVPMDGSHWFTMRSVVEKLILRGHEVVVVMPEVSWQLGRSLNCTVKTYSTSYTLEDLDREFKAFAHAQWKAQVRSIYSLLMGSYNDIFDLFFSNCRSLFKDKKLVEYLKESSFDAVFLDPFDNCGLIVAKYFSLPSVVFARGILCHYLEEGAQCPAPLSYVPRILLGFSDAMTFKERVRNHIMHLEEHLLCHRFFKNALEIASEILQTPVTEYDLYSHTSIWLLRTDFVLDYPKPVMPNMIFIGGINCHQGKPLPMEFEAYINASGEHGIVVFSLGSMVSEIPEKKAMAIADALGKIPQTVLWRYTGTRPSNLANNTILVKWLPQNDLLGHPMTRAFITHAGSHGVYESICNGVPMVMMPLFGDQMDNAKRMETKGAGVTLNVLEMTSEDLENALKAVINDKSYKENIMRLSSLHKDRPVEPLDLAVFWVEFVMRHKGAPHLRPAAHDLTWYQYHSLDVIGFLLAVVLTVAFITFKCCAYGYRKCLGKKGRVKKAHKSKTH
Sequence of UniProt Q16549 (whole entry, looked up): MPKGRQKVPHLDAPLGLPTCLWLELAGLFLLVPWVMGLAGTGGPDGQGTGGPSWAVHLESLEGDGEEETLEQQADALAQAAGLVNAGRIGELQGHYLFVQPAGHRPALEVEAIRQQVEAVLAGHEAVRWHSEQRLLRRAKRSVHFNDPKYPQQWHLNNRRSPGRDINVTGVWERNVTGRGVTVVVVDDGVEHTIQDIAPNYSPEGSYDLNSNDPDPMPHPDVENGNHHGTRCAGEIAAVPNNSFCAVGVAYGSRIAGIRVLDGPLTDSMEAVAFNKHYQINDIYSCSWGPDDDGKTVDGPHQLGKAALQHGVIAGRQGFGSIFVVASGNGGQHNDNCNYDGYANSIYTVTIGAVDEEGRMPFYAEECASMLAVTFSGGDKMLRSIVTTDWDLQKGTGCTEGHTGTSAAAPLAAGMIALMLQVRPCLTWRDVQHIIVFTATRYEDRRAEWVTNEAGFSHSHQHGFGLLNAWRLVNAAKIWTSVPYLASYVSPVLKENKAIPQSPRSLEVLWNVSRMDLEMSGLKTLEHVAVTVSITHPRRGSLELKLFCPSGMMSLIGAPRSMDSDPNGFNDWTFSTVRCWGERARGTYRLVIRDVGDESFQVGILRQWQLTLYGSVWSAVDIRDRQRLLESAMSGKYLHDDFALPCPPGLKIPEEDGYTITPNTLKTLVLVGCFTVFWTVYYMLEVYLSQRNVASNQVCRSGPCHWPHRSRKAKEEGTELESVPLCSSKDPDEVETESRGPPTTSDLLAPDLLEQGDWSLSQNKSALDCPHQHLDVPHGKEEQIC
Sequence of UniProt P00459 (whole entry, looked up): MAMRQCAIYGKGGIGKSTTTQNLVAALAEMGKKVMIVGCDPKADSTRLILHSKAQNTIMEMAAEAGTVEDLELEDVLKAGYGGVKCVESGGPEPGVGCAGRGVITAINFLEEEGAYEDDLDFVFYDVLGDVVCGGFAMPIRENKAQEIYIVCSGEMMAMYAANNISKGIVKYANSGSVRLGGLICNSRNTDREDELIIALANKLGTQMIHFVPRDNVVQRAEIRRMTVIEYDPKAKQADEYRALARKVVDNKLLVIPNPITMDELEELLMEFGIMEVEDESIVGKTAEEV
Sequence of UniProt P09958 (whole entry, looked up): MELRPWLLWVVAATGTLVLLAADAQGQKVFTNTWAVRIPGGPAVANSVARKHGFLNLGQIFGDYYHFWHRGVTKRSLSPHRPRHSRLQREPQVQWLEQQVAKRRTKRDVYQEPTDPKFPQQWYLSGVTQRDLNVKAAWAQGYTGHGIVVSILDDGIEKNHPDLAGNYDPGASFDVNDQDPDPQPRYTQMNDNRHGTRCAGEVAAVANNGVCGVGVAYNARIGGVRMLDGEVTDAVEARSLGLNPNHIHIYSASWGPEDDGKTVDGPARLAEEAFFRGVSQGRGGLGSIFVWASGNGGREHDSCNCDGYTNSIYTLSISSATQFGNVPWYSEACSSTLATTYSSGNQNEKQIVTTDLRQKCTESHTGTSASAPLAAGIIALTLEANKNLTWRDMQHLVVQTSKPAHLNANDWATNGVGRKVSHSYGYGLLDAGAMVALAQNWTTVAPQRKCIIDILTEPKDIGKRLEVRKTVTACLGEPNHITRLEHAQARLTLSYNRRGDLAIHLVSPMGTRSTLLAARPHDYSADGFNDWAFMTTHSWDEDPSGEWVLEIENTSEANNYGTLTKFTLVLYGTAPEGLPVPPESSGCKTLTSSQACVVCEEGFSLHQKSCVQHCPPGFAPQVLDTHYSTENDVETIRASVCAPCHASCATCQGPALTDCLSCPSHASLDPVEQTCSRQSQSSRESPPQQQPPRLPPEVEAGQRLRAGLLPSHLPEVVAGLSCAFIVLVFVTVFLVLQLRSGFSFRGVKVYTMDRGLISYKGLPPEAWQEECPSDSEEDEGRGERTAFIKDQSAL
Sequence of UniProt Q2CEE3 (whole entry, looked up): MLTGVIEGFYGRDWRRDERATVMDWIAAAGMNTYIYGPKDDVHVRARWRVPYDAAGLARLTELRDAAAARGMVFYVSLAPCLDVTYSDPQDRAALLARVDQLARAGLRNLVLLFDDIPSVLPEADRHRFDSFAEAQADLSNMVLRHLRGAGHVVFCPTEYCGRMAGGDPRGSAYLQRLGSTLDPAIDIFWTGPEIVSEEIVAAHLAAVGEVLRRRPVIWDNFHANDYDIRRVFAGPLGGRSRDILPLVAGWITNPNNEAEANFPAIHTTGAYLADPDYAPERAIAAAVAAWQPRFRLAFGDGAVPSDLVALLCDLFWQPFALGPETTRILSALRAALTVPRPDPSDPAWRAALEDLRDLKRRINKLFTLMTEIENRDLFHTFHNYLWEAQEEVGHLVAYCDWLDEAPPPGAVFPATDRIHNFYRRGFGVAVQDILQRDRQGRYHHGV
Sequence of UniProt P31570 (whole entry, looked up): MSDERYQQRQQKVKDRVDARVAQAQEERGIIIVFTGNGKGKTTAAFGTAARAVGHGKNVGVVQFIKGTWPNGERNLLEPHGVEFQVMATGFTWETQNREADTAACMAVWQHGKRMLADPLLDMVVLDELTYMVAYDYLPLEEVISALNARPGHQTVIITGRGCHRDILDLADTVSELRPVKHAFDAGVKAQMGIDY
Sequence of UniProt P08244 (whole entry, looked up): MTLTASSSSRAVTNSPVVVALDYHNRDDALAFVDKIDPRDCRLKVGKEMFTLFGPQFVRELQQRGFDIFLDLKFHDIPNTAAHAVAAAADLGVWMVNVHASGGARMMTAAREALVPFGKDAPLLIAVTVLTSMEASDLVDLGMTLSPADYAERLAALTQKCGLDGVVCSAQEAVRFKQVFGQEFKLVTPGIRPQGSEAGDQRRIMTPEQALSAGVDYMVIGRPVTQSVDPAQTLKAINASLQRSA
Sequence of UniProt P07265 (whole entry, looked up): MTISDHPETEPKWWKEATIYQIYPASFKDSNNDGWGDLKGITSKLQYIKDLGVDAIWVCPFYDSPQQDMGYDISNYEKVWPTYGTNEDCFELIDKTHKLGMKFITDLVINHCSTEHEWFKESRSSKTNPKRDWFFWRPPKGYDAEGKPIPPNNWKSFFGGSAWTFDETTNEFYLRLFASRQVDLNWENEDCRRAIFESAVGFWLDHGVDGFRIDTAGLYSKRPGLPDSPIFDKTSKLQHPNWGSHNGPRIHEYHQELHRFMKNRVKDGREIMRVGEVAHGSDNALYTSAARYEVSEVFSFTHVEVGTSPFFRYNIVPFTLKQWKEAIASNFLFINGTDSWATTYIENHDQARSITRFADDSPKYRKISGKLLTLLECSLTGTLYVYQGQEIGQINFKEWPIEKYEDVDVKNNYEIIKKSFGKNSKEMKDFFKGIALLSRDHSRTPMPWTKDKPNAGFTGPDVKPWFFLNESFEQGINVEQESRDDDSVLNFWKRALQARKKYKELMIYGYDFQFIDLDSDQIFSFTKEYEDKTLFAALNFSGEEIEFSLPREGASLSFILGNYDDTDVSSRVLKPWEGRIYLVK
Sequence of UniProt K7WIZ6 (whole entry, looked up): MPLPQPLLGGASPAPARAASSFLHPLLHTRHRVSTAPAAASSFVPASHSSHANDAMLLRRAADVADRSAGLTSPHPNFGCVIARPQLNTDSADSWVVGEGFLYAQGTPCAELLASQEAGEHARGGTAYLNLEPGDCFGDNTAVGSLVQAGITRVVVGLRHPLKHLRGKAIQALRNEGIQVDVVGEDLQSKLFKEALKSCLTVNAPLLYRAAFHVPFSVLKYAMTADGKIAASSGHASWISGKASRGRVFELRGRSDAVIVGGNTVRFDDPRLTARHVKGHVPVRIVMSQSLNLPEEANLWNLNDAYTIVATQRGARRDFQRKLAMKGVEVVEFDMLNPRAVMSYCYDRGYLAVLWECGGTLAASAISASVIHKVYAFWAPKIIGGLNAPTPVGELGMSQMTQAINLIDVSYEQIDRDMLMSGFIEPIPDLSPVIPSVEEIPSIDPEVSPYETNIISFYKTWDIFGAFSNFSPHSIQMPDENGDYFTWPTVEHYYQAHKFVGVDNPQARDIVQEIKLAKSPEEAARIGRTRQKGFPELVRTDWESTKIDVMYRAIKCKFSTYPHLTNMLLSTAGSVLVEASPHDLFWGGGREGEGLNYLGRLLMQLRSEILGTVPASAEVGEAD

Molecule	target or system	test	system	conditions	scale	Km [µM]
O=C(O)c1c(F)c(=O)[nH]c(=O)n1[C@@H]1O[C@H](COP(=O)(O)O)[C@@H](O)[C@H]1O	Orotidine 5'-phosphate decarboxylase (pyrF, Escherichia coli, UniProt P08244)	enzyme activity, substrate		pH 7.1, 25 °C	lower limit	> 200
CCCCCCCCCCCCCCCC(=O)Oc1ccc([N+](=O)[O-])cc1	lipase Bacillus amyloliquefaciens	substrate		pH 7, 30 °C		4340
C/C1=C2/N[C@H]([C@H](CC(N)=O)[C@@]2(C)CCC(=O)NC[C@@H](C)OP(=O)(O)O[C@H]2[C@@H](O)[C@@H](n3cnc4cc(C)c(C)cc43)O[C@@H]2CO)[C@]2(C)N=C(/C(C)=C3N=C(/C=C4N=C1[C@@H](CCC(N)=O)C\4(C)C)[C@@H](CCC(N)=O)[C@]\3(C)CC(N)=O)[C@@H](CCC(N)=O)[C@]2(C)CC(N)=O.[Co]	Corrinoid adenosyltransferase CobA (btuR, Salmonella typhimurium, UniProt P31570)	substrate		pH 8, 37 °C, with: ATP		4 ± 1
Nc1ncnc2c1ncn2[C@@H]1O[C@H](COP(=O)(O)OP(=O)(O)OP(=O)(O)O)[C@@H](O)[C@H]1O	hexokinase (Saccharomyces cerevisiae)	ADP generation, substrate		pH 7.5, 20 °C, with: D-glucose 2 mM		75 ± 2
O=[N+]([O-])c1ccc(O[C@H]2O[C@H](CO)[C@@H](O)[C@H](O)[C@H]2O)cc1	Alpha-glucosidase MAL62 (MAL62, Saccharomyces cerevisiae, UniProt P07265)	hydrolysis, substrate				537 ± 76
Boc-RVRR-{AMC} (N-Boc, C-AMC; Boc = CC(C)(C)OC(=O)*; AMC = Cc1cc(=O)oc2cc(N*)ccc12)	Furin (FURIN, Homo sapiens, UniProt P09958)	cleavage, substrate		37 °C		99
Ac-LDEVD-pNA (N-acetyl, C-pNA; pNA = O=[N+]([O-])c1ccc(N*)cc1)	Caspase-7 (CASP7, Homo sapiens, UniProt P55210)	substrate hydrolysis, substrate, colorimetric		pH 7.5		61 ± 3
B1 (UGT1A9)	COc1ccccc1-c1oc2ccccc2c(=O)c1O	steady-state kinetics		pH 7.4, 37 °C		0.21
CC(=O)N[C@H]1[C@H](Oc2ccc3c(C)cc(=O)oc3c2)O[C@H](CO)[C@@H](O)[C@@H]1O	Protein O-GlcNAcase (Oceanicola granulosus, UniProt Q2CEE3)	substrate, fluorimetric		pH 7.5, 37 °C		2900 ± 200
Nc1ncnc2c1ncn2[C@@H]1O[C@H](COP(=O)(O)OP(=O)(O)OP(=O)(O)O)[C@@H](O)[C@H]1O	Nitrogenase iron protein 1, with MoFe protein (nifH1, Azotobacter vinelandii, UniProt P00459)	acetylene reduction, substrate		pH 8, 303 K, with: MoFe protein 0.4 µM, Fe protein 1.6 µM		650 ± 110
CCOc1ccc2nc3ccc(=O)cc-3oc2c1	rat CYP1A	O-deethylation, substrate	liver microsomes	15 min, 37 °C, 3-week-old control rats		7.89 ± 3.66
Cc1cc(=O)oc2cc(NC(=O)[C@H](CCCNC(=N)N)NC(=O)[C@H](CCCNC(=N)N)NC(=O)[C@@H](NC(=O)[C@H](CCCNC(=N)N)NC(=O)OC(C)(C)C)C(C)C)ccc12	Proprotein convertase subtilisin/kexin type 7 (Homo sapiens, UniProt Q16549)	substrate, fluorogenic		pH 7.5, 25 °C, with: Boc-RVRR-AMC		27 ± 3
Nc1c(N[C@@H]2O[C@H](COP(=O)(O)O)[C@@H](O)[C@H]2O)[nH]c(=O)[nH]c1=O (mixture of isomers)	Riboflavin biosynthesis protein PYRR, chloroplastic, COG domain (PYRR, Zea mays, UniProt K7WIZ6)	substrate, HPLC-UV		pH 8.0, 22 °C, with: 5 mM MgCl2		1080 ± 110

For quick reference, copied from above:
Molecule	target or system	test	system	conditions	scale	Km [µM]
CC(=O)N[C@H]1[C@H](Oc2ccc3c(C)cc(=O)oc3c2)O[C@H](CO)[C@@H](O)[C@@H]1O	Protein O-GlcNAcase (Oceanicola granulosus, UniProt Q2CEE3)	substrate, fluorimetric		pH 7.5, 37 °C		2900 ± 200
